Assay results gathered from unrelated publications.
Each line is one published result; not all experiments were run side by side. Several values in a cell are separate wells, animals, samples, runs or records. ± gives the spread as reported.

SMILES	target or system	assay	test system	conditions	how to read	measurement	result
OCCCNc1cc(-c2ccnc(Nc3cccc(Cl)c3)n2)ccn1	SNU-1040			330 nM, 3 days, 100% DMSO	reference: vehicle	cell growth	47%
COc1ccc([C@H]2N(c3ccc(Cl)c(Cl)c3)C(=O)[C@@H]3CCCN32)c(OC)c1OC (racemic)	PC-12			50 µM, 2 days		mutant huntingtin protein level	no effect
O=c1ccn([C@@H]2O[C@H](CO)[C@@H](O)[C@H]2O)c(=O)[nH]1	activated human T cells		human	100 nM		T cell proliferation	29.5% and 16.9% and 15.6% and 37.5% and 31.8%
COc1cnc2cccc(N3CCc4c(cc(Cn5ccnc5C)cc4-c4cn(C)nc4C(F)(F)F)C3=O)c2c1	22Rv1	cell growth, inhibitor		120 h		EC50	2.96 µM
Cc1cnc2ccc3c(c2n1)N1CCC(O)N=C1N3C (centres unmarked)	BALB/c 3T3	colony formation		100 µM		plating efficiency	0%
Clc1nc(NCc2ccco2)c2[nH]cnc2n1	iPSC-derived cardiomyocytes	RNA-seq, measured: RTEL1-TNFRSF6B chr20 exon ending 63689648		unit not given	reference: DMSO minus compound	ΔPSI	-0.201
CCCCCCCCCCCCCCCCCCOc1ccccc1CC(=O)OCC[N+]1(C)CCCCC1	NSCLC panel (nine cell lines)			10 µM		mean growth inhibition	55.1%
FC(F)(F)C1=C/C(=C\CCCCCCOCc2ccccc2)c2cc3c(cc21)OCO3	MM1.S bortezomib-resistant	Western blot		0.5 µM, 8 h		Nrf2 stabilization	no effect
CC(C)C[C@H](NC(=O)C[C@H](O)[C@H](CC(C)C)NC(=O)[C@H](Cc1c[nH]cn1)NC(=O)CNC(=O)[C@@H](NC(=O)[C@H](C)NC(=O)[C@H](Cc1c[nH]c2ccccc12)NC(=O)[C@H](CCC(N)=O)NC(=O)[C@@H](Cc1ccccc1)NC(=O)COCCOCCNC(=O)CCC(C(=O)O)N1CCN(CC(=O)O)CCN(CC(=O)O)CCN(CC(=O)O)CC1)C(C)C)C(N)=O (some centres unmarked) [lutetium-177 labelled]			female BALB/c nu/nu mice, stomach	intravenous, 100 pmol, 2 h, together with: PA 300 µg		tissue uptake	0.9 ± 0.3 %ID/g
O=C(/C=C/C=C/C=C/C1CCCCC1)NC1=C[C@@](O)(/C=C/C=C/C=C/C(=O)NC2=C(O)CCC2=O)[C@@H]2O[C@@H]2C1=O	SUM52PE	cell growth, CellTiter-Glo		78 h		GI50	28.8 µM
CCn1cc(-c2cc(Cn3ccoc3=N)cc3c2CCN([C@@H](C)c2cc(OC)ccn2)C3=O)c(C(F)(F)F)n1	HLF	cell growth, inhibitor		120 h		EC50	0.367 µM
Cc1ccc(CNC(=O)Cn2cc(CSc3nc4ccccc4[nH]3)nn2)cc1	HEK293	MTT		15.6 ppm		cytotoxicity	71.6%
CC(C)NCC(O)c1ccc(O)c(O)c1 (centres unmarked)	3T3-L1 mature adipocytes	lipolysis, Oil Red O staining		IC20		mean lipid content	0.678 OD492
COc1ncccc1CN[C@H]1[C@@H](C)[C@@H]1c1ccccc1 (relative stereo)	THP-1 cells expressing NTR	MTS		72 h		GI50	> 50 µM
CCOc1c([C@H](C)n2nc(C)c3c(N)ncnc32)cc(Cl)c(F)c1[C@@H]1CNC(=O)C1			human B-cell malignancy patients	oral, all doses, baseline below threshold		observations with QRS >110 ms	1.5%
Cn1cc(-c2ccc(-c3cncc(Cl)c3N3CCC4(CCNC4=O)CC3)cc2)cn1	COLO 205	gene expression, microarray, measured: IFIT2 mRNA		concentration not given, 6 h	reference: untreated cells	log2 fold change	4.59
COc1c(C)c(OS(=O)(=O)c2ccc3ccccc3c2)c(C)c(O)c1C(=O)/C=C/c1ccccc1	KKU-M213	SRB			reference: normal over KKU-M213 IC50	selectivity index	1.09
CCCCN1C[C@H](O)[C@@H](O)[C@@H](O)[C@H]1CO	sample D patient fibroblasts	acidic compartment staining, LysoTracker Red imaging		216 h		IC50	1.4 µM
COCCN(C)C(=O)c1ccc(C2CCCCC2)cc1		hepatocyte stability	cryopreserved rat hepatocytes	1 µM		hepatic clearance	47 mL/min/kg
CC(C)NCC(O)c1ccc(O)c(O)c1 (centres unmarked)	mouse ventricular cardiomyocytes			dose not given, 0.307 s		sarcomere length	1.8 µm
CSCC[C@H](NC(=O)[C@H](Cc1ccc(OS(=O)(=O)O)cc1)NC(=O)[C@@H](N)CC(=O)O)C(=O)NCC(=O)N[C@@H](Cc1c[nH]c2ccccc12)C(=O)N[C@@H](CCSC)C(=O)N[C@@H](CC(=O)O)C(=O)N[C@@H](Cc1ccccc1)C(N)=O	HEK293T control virus	agonist, calcium mobilization		0.001024 nM, no receptor expressed	higher = more calcium release	calcium response	0.098 a.u.
O=C(NCCN1CCCC1=O)c1ccc([C@H]2[C@@H](F)[C@@H](F)C[C@@H](F)[C@H]2F)cc1		hepatocyte stability	cryopreserved rat hepatocytes	1 µM		hepatic clearance	10 mL/min/kg
O=c1[nH]nc(OCCCc2ccc(Cl)cc2)c(NCc2cccnc2)c1Br	HEK293T	RNA-seq, measured: SLC1A4 mRNA		10 µM, 6 h	reference: vehicle	log2 fold change	1.43

Repeated from above:
SMILES	target or system	assay	test system	conditions	how to read	measurement	result
Cn1cc(-c2ccc(-c3cncc(Cl)c3N3CCC4(CCNC4=O)CC3)cc2)cn1	COLO 205	gene expression, microarray, measured: IFIT2 mRNA		concentration not given, 6 h	reference: untreated cells	log2 fold change	4.59
COc1cnc2cccc(N3CCc4c(cc(Cn5ccnc5C)cc4-c4cn(C)nc4C(F)(F)F)C3=O)c2c1	22Rv1	cell growth, inhibitor		120 h		EC50	2.96 µM
OCCCNc1cc(-c2ccnc(Nc3cccc(Cl)c3)n2)ccn1	SNU-1040			330 nM, 3 days, 100% DMSO	reference: vehicle	cell growth	47%
